# Measurements from different studies.
# Each numbered part is a random draw from the data of one study; scales do not carry over between parts.
# Chain of UniProt Q16620 (whole entry, looked up): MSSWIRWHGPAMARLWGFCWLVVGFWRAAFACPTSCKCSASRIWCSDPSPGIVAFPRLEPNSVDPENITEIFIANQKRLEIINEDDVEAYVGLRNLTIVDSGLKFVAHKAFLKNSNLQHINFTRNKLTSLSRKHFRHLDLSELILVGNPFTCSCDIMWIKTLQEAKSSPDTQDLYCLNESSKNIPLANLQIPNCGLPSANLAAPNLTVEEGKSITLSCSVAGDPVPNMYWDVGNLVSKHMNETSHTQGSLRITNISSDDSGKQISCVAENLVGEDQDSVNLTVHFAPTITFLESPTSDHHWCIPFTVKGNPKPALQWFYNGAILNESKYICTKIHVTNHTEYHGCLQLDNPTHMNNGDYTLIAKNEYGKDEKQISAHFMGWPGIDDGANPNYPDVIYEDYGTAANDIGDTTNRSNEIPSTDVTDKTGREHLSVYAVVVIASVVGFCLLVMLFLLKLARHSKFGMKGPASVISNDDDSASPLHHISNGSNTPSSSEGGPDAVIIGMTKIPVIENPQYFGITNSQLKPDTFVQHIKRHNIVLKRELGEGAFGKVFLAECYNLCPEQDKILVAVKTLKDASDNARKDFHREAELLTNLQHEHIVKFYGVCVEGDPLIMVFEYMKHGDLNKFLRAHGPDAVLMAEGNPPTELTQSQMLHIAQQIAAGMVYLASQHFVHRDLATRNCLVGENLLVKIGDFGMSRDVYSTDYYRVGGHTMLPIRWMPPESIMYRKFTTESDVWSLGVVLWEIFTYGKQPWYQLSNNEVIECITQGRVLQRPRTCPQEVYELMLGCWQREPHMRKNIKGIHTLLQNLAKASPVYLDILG
# Chain of UniProt P42336 (whole entry, unmodified, looked up): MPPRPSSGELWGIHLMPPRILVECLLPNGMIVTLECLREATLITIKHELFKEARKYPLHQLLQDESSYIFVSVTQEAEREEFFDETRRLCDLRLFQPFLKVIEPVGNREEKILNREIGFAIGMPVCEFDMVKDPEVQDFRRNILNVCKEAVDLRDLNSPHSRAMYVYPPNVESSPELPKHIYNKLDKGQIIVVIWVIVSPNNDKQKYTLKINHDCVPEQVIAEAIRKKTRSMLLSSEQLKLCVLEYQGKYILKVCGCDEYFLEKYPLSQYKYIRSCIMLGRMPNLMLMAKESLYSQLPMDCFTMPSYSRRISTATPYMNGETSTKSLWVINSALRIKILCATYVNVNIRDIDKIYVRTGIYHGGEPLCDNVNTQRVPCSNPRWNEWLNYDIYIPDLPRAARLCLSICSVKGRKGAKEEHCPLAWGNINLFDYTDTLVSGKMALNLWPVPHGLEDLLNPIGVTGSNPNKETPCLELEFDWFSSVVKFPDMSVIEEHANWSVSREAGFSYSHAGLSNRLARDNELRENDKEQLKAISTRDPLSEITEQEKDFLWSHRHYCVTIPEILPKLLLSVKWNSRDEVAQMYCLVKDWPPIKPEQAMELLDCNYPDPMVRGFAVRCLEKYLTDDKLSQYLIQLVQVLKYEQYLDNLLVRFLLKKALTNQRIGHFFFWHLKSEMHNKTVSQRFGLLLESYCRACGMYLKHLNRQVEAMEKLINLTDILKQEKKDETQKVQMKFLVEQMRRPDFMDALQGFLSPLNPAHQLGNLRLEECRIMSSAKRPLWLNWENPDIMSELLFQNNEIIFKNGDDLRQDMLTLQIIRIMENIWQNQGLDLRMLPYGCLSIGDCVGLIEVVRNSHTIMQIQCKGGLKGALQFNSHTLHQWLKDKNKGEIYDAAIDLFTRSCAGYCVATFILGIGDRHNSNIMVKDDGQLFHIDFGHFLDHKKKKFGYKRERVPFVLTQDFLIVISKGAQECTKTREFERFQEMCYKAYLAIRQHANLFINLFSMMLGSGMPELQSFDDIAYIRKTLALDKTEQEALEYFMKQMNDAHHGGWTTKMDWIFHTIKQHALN
# Chain of UniProt O75676 (whole entry, looked up): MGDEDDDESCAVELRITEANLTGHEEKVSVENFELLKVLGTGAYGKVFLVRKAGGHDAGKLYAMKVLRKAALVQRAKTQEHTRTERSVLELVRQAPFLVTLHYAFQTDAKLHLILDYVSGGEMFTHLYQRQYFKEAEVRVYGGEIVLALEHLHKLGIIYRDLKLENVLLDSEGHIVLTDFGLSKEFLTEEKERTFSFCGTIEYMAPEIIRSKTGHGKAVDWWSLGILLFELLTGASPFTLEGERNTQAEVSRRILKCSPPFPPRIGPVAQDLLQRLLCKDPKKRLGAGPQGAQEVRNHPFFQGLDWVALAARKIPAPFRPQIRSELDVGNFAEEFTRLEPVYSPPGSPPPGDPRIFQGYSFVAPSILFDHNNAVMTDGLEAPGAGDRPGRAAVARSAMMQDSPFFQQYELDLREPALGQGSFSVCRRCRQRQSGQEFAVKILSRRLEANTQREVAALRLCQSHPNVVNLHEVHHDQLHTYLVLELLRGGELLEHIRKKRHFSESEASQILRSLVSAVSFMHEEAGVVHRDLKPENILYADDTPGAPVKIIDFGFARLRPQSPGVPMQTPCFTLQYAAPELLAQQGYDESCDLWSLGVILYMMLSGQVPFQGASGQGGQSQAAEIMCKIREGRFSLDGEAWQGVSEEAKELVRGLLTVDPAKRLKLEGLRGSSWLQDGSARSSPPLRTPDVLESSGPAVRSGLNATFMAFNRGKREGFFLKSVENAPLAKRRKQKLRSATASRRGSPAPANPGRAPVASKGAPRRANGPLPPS
# Chain of UniProt P53355 (whole entry, looked up): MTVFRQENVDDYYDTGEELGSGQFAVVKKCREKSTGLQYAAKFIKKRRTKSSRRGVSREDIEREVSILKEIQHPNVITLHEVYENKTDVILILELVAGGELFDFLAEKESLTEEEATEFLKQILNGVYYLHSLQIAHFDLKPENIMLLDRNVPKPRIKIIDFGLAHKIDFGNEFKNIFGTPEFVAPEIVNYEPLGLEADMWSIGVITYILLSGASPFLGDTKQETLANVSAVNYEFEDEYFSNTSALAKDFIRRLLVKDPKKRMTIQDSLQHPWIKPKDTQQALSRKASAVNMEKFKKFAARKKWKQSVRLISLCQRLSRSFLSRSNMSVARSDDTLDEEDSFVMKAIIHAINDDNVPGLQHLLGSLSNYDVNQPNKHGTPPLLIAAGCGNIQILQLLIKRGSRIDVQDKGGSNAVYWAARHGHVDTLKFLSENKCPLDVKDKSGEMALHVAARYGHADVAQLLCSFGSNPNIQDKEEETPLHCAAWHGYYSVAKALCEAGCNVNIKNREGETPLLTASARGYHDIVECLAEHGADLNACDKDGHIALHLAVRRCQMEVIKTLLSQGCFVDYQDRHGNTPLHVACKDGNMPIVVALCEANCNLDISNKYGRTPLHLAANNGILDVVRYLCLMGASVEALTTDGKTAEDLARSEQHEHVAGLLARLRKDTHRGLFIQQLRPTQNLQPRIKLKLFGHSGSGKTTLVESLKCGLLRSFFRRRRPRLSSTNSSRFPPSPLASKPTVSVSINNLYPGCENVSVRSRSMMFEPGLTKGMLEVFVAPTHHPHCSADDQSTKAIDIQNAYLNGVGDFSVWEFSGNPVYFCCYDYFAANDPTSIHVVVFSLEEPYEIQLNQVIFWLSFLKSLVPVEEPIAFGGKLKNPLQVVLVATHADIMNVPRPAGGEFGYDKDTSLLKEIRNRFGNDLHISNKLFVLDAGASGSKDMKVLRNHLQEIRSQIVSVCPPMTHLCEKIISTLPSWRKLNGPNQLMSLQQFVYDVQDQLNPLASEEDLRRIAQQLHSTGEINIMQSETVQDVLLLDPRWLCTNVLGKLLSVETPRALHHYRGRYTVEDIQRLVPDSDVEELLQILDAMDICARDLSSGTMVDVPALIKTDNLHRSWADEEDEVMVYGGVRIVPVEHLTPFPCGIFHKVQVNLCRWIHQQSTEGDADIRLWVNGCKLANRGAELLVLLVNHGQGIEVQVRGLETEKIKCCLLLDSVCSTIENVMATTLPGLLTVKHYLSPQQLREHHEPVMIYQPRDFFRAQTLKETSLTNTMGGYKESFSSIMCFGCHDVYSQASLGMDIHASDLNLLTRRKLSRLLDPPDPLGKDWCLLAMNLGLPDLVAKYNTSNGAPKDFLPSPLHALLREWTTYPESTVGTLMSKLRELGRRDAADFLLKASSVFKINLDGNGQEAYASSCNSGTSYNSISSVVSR
# Chain of UniProt P19784 (whole entry, looked up): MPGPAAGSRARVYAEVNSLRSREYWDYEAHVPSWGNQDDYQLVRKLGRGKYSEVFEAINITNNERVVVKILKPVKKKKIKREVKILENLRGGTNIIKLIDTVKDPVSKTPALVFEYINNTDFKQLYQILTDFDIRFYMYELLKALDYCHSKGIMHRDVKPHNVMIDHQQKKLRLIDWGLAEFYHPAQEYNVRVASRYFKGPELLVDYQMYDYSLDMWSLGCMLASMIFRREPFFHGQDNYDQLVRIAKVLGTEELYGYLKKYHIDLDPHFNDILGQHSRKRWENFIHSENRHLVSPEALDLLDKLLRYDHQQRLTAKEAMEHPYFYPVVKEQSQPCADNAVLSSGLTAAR

# Set 1
# Target: TGF-beta receptor type-2 (TGFBR2, Homo sapiens, UniProt P37173)
# Chain of UniProt P37173 (whole entry, looked up): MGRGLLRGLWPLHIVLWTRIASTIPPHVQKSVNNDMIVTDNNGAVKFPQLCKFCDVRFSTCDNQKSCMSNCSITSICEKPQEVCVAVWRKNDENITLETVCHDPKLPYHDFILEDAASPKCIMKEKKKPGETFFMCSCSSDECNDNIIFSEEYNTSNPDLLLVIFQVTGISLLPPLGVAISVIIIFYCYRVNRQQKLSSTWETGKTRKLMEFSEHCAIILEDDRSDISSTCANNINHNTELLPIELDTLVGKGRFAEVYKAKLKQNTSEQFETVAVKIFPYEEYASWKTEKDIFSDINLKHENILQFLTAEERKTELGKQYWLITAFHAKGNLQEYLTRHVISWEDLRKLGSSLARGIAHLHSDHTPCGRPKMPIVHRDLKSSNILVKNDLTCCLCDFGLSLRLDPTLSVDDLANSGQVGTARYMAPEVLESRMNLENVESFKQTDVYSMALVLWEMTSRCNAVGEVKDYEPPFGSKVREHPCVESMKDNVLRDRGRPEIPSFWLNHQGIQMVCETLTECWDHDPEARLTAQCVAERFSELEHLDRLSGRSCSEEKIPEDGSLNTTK
# Observed: enzyme activity
# Mode: inhibitor
# Concentration: 0.5 µM
# Baseline: control
SMILES,remaining activity [%]
Cc1nc(-c2ccccc2)c(-c2ccncc2)o1,133
OCC(O)CCON=C1C(c2c(O)[nH]c3ccccc23)=Nc2ccccc21 (stereo not drawn),119
CCOC(=O)c1c(C)[nH]c(/C=C2\C(=O)Nc3ccccc32)c1C,101
COc1cc2ncnc(Nc3ccc(F)c(Cl)c3)c2cc1OCCCN1CCOCC1,93.8
COc1ccc(C(=O)Nc2sc3c(c2C(N)=O)CCCC3)cc1OC,134
Nc1ncnc2n[nH]c(Nc3ccc(F)cc3)c12,101
O=C1NC(=O)C(c2cn(CCCO)c3ncccc23)=C1c1cnccn1,122
Nc1[nH]nc2nc3ccccc3nc12,82.4
O=C1NC(=O)C(c2cn(CCCn3ccnc3)c3ccccc23)=C1Nc1ccccc1,134
CC(C)[C@H](CO)Nc1nc(Nc2cc(N)cc(Cl)c2)c2ncn(C(C)C)c2n1,93.5
COc1ccc(OC)c2c(=S)c3ccccc3[nH]c12,109
Oc1ccc(-c2nc(-c3ccncc3)c(-c3ccc(F)cc3)[nH]2)cc1,127
COc1cc2nccc(Oc3ccc(NC(=S)NC(=O)c4ccccc4C)cc3)c2cc1OC,96.7

# Set 2
# SMILES: COCCOc1nc(-c2ccc(Cl)nc2)nc2c1CN(C(=O)c1ncn3ccccc13)CC2
# Observed: cell-free assay
# Technique: competition with immobilised ligand
# Concentration: 0.1 µM
target,remaining binding [%]
"Casein kinase II subunit alpha' (CSNK2A2, Homo sapiens, UniProt P19784)",100
"Ribosomal protein S6 kinase alpha-4, C-terminal kinase domain (RPS6KA4, Homo sapiens, UniProt O75676)",100
"BDNF/NT-3 growth factors receptor (NTRK2, Homo sapiens, UniProt Q16620)",100
"Phosphatidylinositol 4,5-bisphosphate 3-kinase catalytic subunit alpha isoform (PIK3CA, Homo sapiens, UniProt P42336, E545K)",71
"Death-associated protein kinase 1 (DAPK1, Homo sapiens, UniProt P53355)",100
"Tyrosine-protein kinase receptor Tie-1 (TIE1, Homo sapiens, UniProt P35590)",100

# Set 3
# Observed: AlphaScreen signal
# Technique: AlphaScreen counter screen
# Sample: His6 peptide without bromodomain
# Concentration: 50 µM
# Notes: assay interference check
SMILES,inhibition [%]
Cc1cc2nc(C(C#N)=Cc3ccncc3)[nH]c2cc1C,25.4
N#CC(=Cc1ccncc1)c1nc2cc(C(F)(F)F)ccc2s1,51.6
O=C(Nc1cc(Cl)cc2c1[nH]c1cnccc12)c1cccnc1,22.9
Cc1cccc(-c2nn3c(c2-c2ccnc4ccc(C(N)=O)cc24)CCC3)n1,-0.2
N#CC(=C(N)Sc1ccccc1N)C(C#N)=C(N)Sc1ccccc1N,10.4
CN(c1ccccc1CNc1nc(Nc2ccc3c(c2)CC(=O)N3)ncc1C(F)(F)F)S(C)(=O)=O,35.6
Nc1nc(Nc2ccccc2)sc1C(=O)c1ccc(F)cc1,63.4

# Other studies, line by line
Compound,species,concentration,notes,endpoint,result
CC(C)n1cnc(-c2ccc(F)cc2)c1-c1ncc(C(=O)Nc2ccc(N3CCN(C)CC3)cc2)[nH]1,"human, idiopathic pulmonary fibrosis",concentration not given,"trial, all arms total",patients with Nasopharyngitis,0%

# Excerpt of the above (set 2):
target,remaining binding [%]
"Phosphatidylinositol 4,5-bisphosphate 3-kinase catalytic subunit alpha isoform (PIK3CA, Homo sapiens, UniProt P42336, E545K)",71
"Death-associated protein kinase 1 (DAPK1, Homo sapiens, UniProt P53355)",100
"Tyrosine-protein kinase receptor Tie-1 (TIE1, Homo sapiens, UniProt P35590)",100
